Measurements gathered from unrelated publications.
Values joined by “and” are separate records of one study, mostly repeats; a detail may differ. Numbers after ± are the reported error.

SMILES | test | test system | conditions | AUC(0-t)
C#C[C@]1(O)CC[C@H]2[C@@H]3CCc4cc(O)ccc4[C@H]3CC[C@@]21C | – | HIV-positive women, ritonavir arm, serum | oral, 30 µg with levonorgestrel, 72 h, steady state, together with: ritonavir | 3.87 ± 0.976 ng·h/mL
CCC[C@H](N[C@@H](C)C(=O)N1[C@H](C(=O)O)C[C@@H]2CCCC[C@@H]21)C(=O)O | – | healthy Chinese volunteers, plasma | oral, 4 mg perindopril tert-butylamine, up to 48 h, fasting, together with: indapamide 1.25 mg | 108 ± 34.7 ng·h/mL
C[C@H]1Oc2cc(cnc2N)-c2c(nn(C)c2C#N)CN(C)C(=O)c2ccc(F)cc21 | – | healthy adults | oral tablet, 100 mg single dose, fasted, adjusted geometric mean | 7980 ng·h/mL
Cc1nc(Nc2ncc(C(=O)Nc3c(C)cccc3Cl)s2)cc(N2CCN(CCO)CC2)n1 | – | patients, plasma | oral, 200 mg, day 0, given alone, geometric mean | 1450 ng·h/mL
CC(C)=CCC[C@](C)(O[C@@H]1O[C@H](CO)[C@@H](O)[C@H](O)[C@H]1O)[C@H]1CC[C@]2(C)[C@@H]1[C@H](O)C[C@@H]1[C@@]3(C)CC[C@H](O[C@@H]4O[C@H](CO)[C@@H](O)[C@H](O)[C@H]4O[C@@H]4O[C@H](CO)[C@@H](O)[C@H](O)[C@H]4O)C(C)(C)[C@@H]3CC[C@]12C | LC-MS/MS | healthy volunteers, serum | oral, 3 g red ginseng | 7.85 ± 11.2 ng·h/mL
NC(=O)c1cnc2[nH]ccc2c1N[C@@H]1[C@@H]2CC3C[C@H]1C[C@@](O)(C3)C2 | – | healthy Japanese men, plasma | oral, 200 mg, single dose fasted | 2510 ng·h/mL
Cc1ccc(NC(=O)c2ccc(CN3CCN(C)CC3)cc2)cc1Nc1nccc(-c2cncc(-c3oncc3C)c2)n1 | – | Parkinson's disease patients, plasma | oral, 50.0 mg once daily, day 1, 7-day dosing, mean | 19300 ng·h/mL
CCC[C@H](N[C@@H](C)C(=O)N1[C@H](C(=O)O)C[C@@H]2CCCC[C@@H]21)C(=O)OCC | – | healthy Chinese volunteers, whole blood | oral, 4 mg, up to 6 h, fasting, together with: indapamide 1.25 mg | 34 ± 8.6 ng·h/mL
CC[C@H](C)[C@H](NC(=O)[C@H](CCC(=O)O)NC(=O)[C@H](CO)NC(=O)[C@@H](NC(=O)[C@@H](N)CO)C(C)C)C(=O)N[C@@H](CCC(N)=O)C(=O)N[C@@H](CC(C)C)C(=O)N[C@@H](CCSC)C(=O)N[C@@H](Cc1cnc[nH]1)C(=O)N[C@@H](CC(N)=O)C(=O)N[C@@H](CC(C)C)C(=O)NCC(=O)N[C@@H](CCCCN)C(=O)N[C@@H](Cc1cnc[nH]1)C(=O)N[C@@H](CC(C)C)C(=O)N[C@@H](CC(N)=O)C(=O)N[C@@H](CO)C(=O)N[C@@H](CCSC)C(=O)N[C@@H](CCC(=O)O)C(=O)N[C@@H](CCCN=C(N)N)C(=O)N[C@H](C(=O)N[C@@H](CCC(=O)O)C(=O)N[C@@H](Cc1c[nH]c2ccccc12)C(=O)N[C@@H](CC(C)C)C(=O)N[C@@H](CCCN=C(N)N)C(=O)N[C@@H](CCCCN)C(=O)N[C@@H](CCCCN)C(=O)N[C@@H](CC(C)C)C(=O)N[C@@H](CCC(N)=O)C(=O)N[C@@H](CC(=O)O)C(=O)N[C@H](C(=O)N[C@@H](Cc1cnc[nH]1)C(=O)N[C@@H](CC(N)=O)C(=O)N[C@@H](Cc1ccccc1)C(=O)O)C(C)C)C(C)C | – | postmenopausal women, osteoporosis, plasma | subcutaneous, 56.5 µg once weekly | 0.883 to 1.18 ng·h/mL
COc1cc2c(cc1OC)CN(CCc1ccc(NC(=O)c3cc(OC)c(OC)cc3NC(=O)c3cnc4ccccc4c3)cc1)CC2 | – | human, plasma | intravenous infusion, 4 mg/kg, up to 24 h post-infusion | 17300 ng·h/mL and 13500 ng·h/mL and 11400 ng·h/mL and 12700 ng·h/mL
CC#CC(=O)N1CCC[C@H]1c1nc(-c2ccc(C(=O)Nc3ccccn3)cc2)c2c(N)nccn12 | – | Japanese patients, plasma | oral, 100 mg single dose, fasting, geometric mean | 962 ng·h/mL
CC(C)=CCC[C@](C)(O[C@@H]1O[C@H](CO)[C@@H](O)[C@H](O)[C@H]1O)[C@H]1CC[C@]2(C)[C@@H]1[C@H](O)C[C@@H]1[C@@]3(C)CC[C@H](O[C@@H]4O[C@H](CO)[C@@H](O)[C@H](O)[C@H]4O)C(C)(C)[C@@H]3CC[C@]12C | LC-MS/MS | healthy male volunteers, serum | oral, 3 g fermented red ginseng | 29.2 ± 43.2 ng·h/mL
Cc1nc(-c2ccc(OCC(C)C)c(C#N)c2)sc1C(=O)O | – | healthy Chinese adult volunteers, plasma | oral, 20 mg single dose, fasting | 3500 ± 757 ng·h/mL
O=C(c1cc(Cl)c(O)c(Cl)c1)N1CS(=O)(=O)c2ccccc21 | – | healthy Chinese adults, fasted, plasma | oral, 4 mg single dose, day 1 | 4700 ± 608 ng·h/mL

Some of these lines once more:
SMILES | test | test system | conditions | AUC(0-t)
Cc1nc(-c2ccc(OCC(C)C)c(C#N)c2)sc1C(=O)O | – | healthy Chinese adult volunteers, plasma | oral, 20 mg single dose, fasting | 3500 ± 757 ng·h/mL
